Results gathered from unrelated publications.
A part holds a random share of what one study measured.
Chain of UniProt Q9BYP7 (whole entry, looked up): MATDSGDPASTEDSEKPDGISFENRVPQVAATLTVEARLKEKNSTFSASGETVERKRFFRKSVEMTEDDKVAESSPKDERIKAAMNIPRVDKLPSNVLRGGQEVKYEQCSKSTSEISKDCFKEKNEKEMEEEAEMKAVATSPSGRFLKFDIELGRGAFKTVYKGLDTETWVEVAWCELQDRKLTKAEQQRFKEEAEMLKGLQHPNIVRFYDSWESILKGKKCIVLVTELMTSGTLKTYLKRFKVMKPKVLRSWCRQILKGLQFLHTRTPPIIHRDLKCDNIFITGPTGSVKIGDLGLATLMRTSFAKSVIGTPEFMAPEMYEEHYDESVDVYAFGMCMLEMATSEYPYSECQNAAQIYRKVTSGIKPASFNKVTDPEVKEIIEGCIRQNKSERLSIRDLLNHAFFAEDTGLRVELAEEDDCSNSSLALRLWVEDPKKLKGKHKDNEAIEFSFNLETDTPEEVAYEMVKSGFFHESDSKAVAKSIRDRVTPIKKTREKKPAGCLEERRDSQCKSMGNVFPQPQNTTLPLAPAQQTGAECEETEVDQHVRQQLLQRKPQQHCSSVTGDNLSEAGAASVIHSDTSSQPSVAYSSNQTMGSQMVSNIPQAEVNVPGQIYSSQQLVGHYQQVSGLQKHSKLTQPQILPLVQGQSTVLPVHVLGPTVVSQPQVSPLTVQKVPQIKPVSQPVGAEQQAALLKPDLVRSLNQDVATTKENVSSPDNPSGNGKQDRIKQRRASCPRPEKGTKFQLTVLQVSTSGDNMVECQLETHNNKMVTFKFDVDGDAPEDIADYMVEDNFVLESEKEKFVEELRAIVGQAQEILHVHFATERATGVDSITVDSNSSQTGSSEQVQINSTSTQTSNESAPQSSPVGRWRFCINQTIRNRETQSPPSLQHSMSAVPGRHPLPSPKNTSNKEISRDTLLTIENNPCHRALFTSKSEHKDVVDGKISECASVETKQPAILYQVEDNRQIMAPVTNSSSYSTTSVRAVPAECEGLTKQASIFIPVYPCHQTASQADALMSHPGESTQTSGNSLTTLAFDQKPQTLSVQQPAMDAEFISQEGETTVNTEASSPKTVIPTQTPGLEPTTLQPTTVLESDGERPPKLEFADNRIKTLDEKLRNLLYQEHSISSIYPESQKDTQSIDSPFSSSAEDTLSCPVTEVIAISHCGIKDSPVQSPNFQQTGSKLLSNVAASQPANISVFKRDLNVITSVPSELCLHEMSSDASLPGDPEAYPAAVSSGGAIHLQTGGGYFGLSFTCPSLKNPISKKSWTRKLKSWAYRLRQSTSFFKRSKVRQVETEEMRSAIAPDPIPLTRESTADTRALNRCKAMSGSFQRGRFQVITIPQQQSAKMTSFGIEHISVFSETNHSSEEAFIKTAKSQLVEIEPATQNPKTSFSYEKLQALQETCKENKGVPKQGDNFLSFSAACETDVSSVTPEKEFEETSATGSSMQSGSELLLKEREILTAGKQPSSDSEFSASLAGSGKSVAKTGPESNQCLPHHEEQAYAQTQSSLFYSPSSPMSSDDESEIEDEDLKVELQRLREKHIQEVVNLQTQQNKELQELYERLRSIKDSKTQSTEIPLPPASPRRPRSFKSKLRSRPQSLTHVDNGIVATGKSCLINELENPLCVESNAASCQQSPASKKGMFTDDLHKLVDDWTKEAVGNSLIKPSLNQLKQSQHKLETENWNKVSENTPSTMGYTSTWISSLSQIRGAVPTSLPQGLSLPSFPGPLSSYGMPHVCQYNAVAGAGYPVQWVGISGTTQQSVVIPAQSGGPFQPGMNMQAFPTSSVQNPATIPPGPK
Chain of UniProt O15530 (whole entry, looked up): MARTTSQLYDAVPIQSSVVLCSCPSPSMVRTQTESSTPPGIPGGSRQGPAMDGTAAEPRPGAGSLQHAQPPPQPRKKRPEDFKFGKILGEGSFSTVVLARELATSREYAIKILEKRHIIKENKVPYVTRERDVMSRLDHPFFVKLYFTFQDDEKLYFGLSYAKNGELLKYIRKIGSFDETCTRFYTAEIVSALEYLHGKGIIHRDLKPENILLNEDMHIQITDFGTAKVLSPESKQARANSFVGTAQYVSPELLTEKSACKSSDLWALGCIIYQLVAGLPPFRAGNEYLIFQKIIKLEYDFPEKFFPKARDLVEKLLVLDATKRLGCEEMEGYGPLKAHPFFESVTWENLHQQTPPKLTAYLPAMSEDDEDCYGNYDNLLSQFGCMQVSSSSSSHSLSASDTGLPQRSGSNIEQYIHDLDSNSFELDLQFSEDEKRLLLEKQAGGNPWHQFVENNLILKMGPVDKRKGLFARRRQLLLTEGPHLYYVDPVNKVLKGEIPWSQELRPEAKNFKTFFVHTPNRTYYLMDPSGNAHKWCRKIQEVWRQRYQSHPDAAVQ
Chain of UniProt P22612 (whole entry, looked up): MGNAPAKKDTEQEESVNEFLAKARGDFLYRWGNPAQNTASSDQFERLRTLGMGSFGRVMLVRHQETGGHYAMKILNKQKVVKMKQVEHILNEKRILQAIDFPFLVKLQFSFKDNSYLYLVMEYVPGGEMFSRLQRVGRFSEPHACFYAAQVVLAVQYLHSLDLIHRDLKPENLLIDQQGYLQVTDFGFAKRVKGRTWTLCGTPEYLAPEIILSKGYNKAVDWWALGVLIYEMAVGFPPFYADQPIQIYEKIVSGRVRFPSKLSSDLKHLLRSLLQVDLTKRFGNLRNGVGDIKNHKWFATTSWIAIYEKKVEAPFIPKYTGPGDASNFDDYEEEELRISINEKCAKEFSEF
Chain of UniProt P54762 (whole entry, looked up): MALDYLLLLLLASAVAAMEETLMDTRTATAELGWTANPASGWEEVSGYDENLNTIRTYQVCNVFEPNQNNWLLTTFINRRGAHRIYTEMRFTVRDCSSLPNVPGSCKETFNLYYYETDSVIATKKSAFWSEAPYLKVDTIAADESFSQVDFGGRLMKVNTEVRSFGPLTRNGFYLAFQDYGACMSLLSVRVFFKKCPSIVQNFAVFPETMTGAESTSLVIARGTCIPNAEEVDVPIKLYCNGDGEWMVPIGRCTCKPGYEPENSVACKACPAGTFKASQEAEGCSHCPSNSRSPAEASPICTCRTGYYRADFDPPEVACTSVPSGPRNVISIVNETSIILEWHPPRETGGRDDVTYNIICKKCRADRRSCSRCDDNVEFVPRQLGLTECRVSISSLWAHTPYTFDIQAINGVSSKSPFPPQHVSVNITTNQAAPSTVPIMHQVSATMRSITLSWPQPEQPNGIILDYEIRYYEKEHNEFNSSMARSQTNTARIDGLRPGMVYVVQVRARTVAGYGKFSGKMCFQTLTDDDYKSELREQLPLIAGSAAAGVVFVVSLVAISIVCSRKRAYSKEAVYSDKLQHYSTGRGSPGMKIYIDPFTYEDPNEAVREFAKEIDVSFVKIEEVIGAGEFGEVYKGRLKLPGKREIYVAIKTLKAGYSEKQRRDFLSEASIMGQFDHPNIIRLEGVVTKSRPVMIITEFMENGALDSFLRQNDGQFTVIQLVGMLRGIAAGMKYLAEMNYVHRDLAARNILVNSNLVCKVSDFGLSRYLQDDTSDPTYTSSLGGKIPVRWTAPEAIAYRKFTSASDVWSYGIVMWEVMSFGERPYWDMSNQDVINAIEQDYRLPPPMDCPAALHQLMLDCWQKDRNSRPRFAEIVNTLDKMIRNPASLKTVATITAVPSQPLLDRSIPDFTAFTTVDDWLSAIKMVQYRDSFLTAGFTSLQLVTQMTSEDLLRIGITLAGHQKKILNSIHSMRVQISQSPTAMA
Chain of UniProt Q05397 (whole entry, looked up): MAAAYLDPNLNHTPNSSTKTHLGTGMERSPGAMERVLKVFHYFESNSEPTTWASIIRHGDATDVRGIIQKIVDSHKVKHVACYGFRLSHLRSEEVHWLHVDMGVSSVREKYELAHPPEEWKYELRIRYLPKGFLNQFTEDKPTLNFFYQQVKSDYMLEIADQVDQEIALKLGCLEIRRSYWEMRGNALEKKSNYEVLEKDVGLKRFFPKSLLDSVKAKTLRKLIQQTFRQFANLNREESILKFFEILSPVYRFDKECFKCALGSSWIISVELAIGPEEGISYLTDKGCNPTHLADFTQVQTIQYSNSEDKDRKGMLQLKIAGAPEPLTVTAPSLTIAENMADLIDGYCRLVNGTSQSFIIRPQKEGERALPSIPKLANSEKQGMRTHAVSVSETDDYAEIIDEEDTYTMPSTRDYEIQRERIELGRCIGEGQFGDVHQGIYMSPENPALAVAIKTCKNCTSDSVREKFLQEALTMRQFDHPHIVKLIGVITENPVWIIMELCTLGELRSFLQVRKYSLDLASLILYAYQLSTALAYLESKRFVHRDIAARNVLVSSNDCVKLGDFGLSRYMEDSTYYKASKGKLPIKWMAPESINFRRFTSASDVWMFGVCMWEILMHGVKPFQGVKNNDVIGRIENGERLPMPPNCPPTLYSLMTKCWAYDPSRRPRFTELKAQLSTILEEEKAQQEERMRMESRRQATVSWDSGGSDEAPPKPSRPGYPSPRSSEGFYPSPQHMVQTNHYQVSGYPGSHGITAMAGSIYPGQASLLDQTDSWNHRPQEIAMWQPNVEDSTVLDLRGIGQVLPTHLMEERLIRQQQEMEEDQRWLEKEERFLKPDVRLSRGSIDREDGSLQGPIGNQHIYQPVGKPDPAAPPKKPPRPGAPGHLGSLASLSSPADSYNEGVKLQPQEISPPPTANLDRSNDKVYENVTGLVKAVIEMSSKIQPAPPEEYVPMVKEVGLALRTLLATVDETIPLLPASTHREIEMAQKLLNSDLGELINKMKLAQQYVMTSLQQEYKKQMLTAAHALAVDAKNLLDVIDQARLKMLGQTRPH
Chain of UniProt Q96PF2 (whole entry, looked up): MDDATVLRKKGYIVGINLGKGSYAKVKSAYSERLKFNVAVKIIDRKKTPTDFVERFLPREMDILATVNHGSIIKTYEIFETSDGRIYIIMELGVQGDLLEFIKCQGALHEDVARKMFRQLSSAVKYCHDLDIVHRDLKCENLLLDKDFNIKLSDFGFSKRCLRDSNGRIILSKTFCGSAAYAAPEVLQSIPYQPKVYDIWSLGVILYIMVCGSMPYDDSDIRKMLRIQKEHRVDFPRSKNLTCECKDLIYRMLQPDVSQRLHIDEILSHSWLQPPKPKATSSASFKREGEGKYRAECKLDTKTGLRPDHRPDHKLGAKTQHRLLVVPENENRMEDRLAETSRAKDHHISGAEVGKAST

Study 1
Compound: Cc1c[nH]c2nccc(Oc3c(F)cc(Nc4cc(Cl)nc(N)n4)cc3F)c12
Technique: competition with immobilised ligand
Concentration: 0.1 µM
Measurement: remaining binding
PTK2 (Homo sapiens, UniProt Q05397); cell-free assay: 100%
DCLK1 (Homo sapiens, UniProt O15075); cell-free assay: 65%
CAMKK1 (Homo sapiens, UniProt Q8N5S9); cell-free assay: 99%
DSTYK (Homo sapiens, UniProt Q6XUX3); cell-free assay: 67%
FLT3 (Homo sapiens, UniProt P36888, D835V); cell-free assay: 90%
MYLK3 (Homo sapiens, UniProt Q32MK0); cell-free assay: 91%
BMPR1B (Homo sapiens, UniProt O00238); cell-free assay: 68%
GRK1 (Homo sapiens, UniProt Q15835); cell-free assay: 82%
CAMK2D (Homo sapiens, UniProt Q13557); cell-free assay: 90%
PRKAA1 (Homo sapiens, UniProt Q13131); cell-free assay: 100%
Myosin-IIIb (MYO3B, Homo sapiens, UniProt Q8WXR4); binding: 91%
CSNK2A2 (Homo sapiens, UniProt P19784); cell-free assay: 86%
PIK3CD (Homo sapiens, UniProt O00329); cell-free assay: 51%
CLK2 (Homo sapiens, UniProt P49760); cell-free assay: 86%
MAP4K3 (Homo sapiens, UniProt Q8IVH8); cell-free assay: 91%

Study 2
Host: human
Sample: microsomes or S9
Concentration: 2 µM
Time: 0.5 h
Measurement: remaining compound
CCC(CC)C(=O)N1CCN(c2cc(-n3nc(C)cc3C)ncn2)CC1: 87.6%
CC1(C)C=C(Br)c2ccnc(-c3ccc(S(C)(=O)=O)cc3F)c2O1: 4.39%
O=C(Nc1ccncc1)c1nn(-c2ccc(F)cc2)c2c1CCc1ccccc1-2: 75.8%
COc1c(-c2ccc(F)c(F)c2)c(-n2cncn2)nc2ccc(F)cc12: 49.9%
Nc1ccc(CCNC[C@H](O)c2ccccc2)cc1: 73.1%

Study 3
Compound: COc1cc2ncnc(N3CCN(C(=O)Nc4ccc(Oc5ccccc5)cc4)CC3)c2cc1OC
Observed: enzyme activity
Action: inhibitor
Concentration: 0.5 µM
Reference: control
Measurement: remaining activity
CAMK2B (Homo sapiens, UniProt Q13554): 96.3%
PHKG1 (Homo sapiens, UniProt Q16816): 89.5%
AXL (Homo sapiens, UniProt P30530): 91.7%
MAP4K4 (Homo sapiens, UniProt O95819): 88.4%
STK16 (Homo sapiens, UniProt O75716): 94.2%
Cyclin-dependent kinase 1, with cyclin B (CDK1, Homo sapiens, UniProt P06493): 105%
EPHB4 (Homo sapiens, UniProt P54760): 99.3%
RPS6KA5 (Homo sapiens, UniProt O75582): 96.4%
PDPK1 (Homo sapiens, UniProt O15530): 92.3%
WNK3 (Homo sapiens, UniProt Q9BYP7): 101%
Cyclin-dependent kinase 6, with cyclin D3 (CDK6, Homo sapiens, UniProt Q00534): 100%
HIPK2 (Homo sapiens, UniProt Q9H2X6): 82.8%
MAPKAPK3 (Homo sapiens, UniProt Q16644): 94.6%
Cyclin-dependent kinase 4, with cyclin D3 (CDK4, Homo sapiens, UniProt P11802): 90.3%
DYRK3 (Homo sapiens, UniProt O43781): 86.3%
TSSK2 (Homo sapiens, UniProt Q96PF2): 79.1%
PRKACG (Homo sapiens, UniProt P22612): 103%
BLK (Homo sapiens, UniProt P51451): 113%
RPS6KA6 (Homo sapiens, UniProt Q9UK32): 92%
STK17A (Homo sapiens, UniProt Q9UEE5): 85.5%
EPHB1 (Homo sapiens, UniProt P54762): 94.3%

Single results of other studies
Cell line: HaCaT
Concentration: 100 µM
Time: 60 h
Cc1ncc([N+](=O)[O-])n1CC(C)O (stereo not shown)  viability: 141%
CC(C)(C)NCC(O)COc1cccc2c1CCC(=O)N2 (stereo not shown)  viability: 145%

A few entries again (study 3):
WNK3 (Homo sapiens, UniProt Q9BYP7): 101%
Cyclin-dependent kinase 6, with cyclin D3 (CDK6, Homo sapiens, UniProt Q00534): 100%
HIPK2 (Homo sapiens, UniProt Q9H2X6): 82.8%
MAPKAPK3 (Homo sapiens, UniProt Q16644): 94.6%
Cyclin-dependent kinase 4, with cyclin D3 (CDK4, Homo sapiens, UniProt P11802): 90.3%
